Experimental data collected from several papers.
Parts stem from different laboratories: compare values within a part only.

Study 1 — technique: RNA Bind-n-Seq; molecule type: RNA; sample: in vitro; tested at: 365 nM; relative to: no-protein control; reading: higher = stronger binding
Target: RNA binding protein fox-1 homolog 2, RRM domain, GST-SBP tag (RBFOX2, Homo sapiens, UniProt O43251-10, residues 100-194)
Setting: natural RNA segment, single round, ends assumed
Residues (chain): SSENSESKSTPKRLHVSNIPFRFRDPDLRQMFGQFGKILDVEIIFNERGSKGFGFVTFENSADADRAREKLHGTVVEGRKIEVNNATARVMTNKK
Under “RBNS enrichment (R)”, `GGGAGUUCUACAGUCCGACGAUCCACGUAGAGGCCCAGAGAGUCCCUGGGGGUUCUGCUCUGACCGUGUGGGUGGUGAUCCUUGUCAGGAUGUACAGUCCUUGCUCCCACCCCAUCCGGGAUGGCCGCCUGUCUGGAAUUCUCGGGUGCCAA` is recorded as 0.394.
Under “RBNS enrichment (R)”, `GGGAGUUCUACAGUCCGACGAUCAAAGCCAGUUCCUAAAACUAAAACUCCAUUCUAGUCUUGGGAAGAAAAGUUUCUACUCAGAACUGGGGAAGGAGUGGAACUUAUGACUUGGGCCUCUAGGCUGUCUCUGUUGGAAUUCUCGGGUGCCAA` is recorded as 0.425.
Under “RBNS enrichment (R)”, `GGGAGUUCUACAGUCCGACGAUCCAUUCAUUUCCACCUGGGAAUUUCUGGUGCCAUGCCAGAAAGAAUGAGGAACCUGUAUUCCUCUUCUUCGUGAUAAUAUAAUCUCUAUUUUUUUAGGAAAACAAAAAUGAUGGAAUUCUCGGGUGCCAA` is recorded as 0.405.
`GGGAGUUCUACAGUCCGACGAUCAGAAAUAAUGCAUUUCUGUGGAUACAGUGCCCACCGCCCUCCUCCACUUGGAAACGGUAUCCUCCCUGCCCAUCCGUCUGUCUGUCGCCCUUCUCCCGGCCCUCACUAAGUGGAAUUCUCGGGUGCCAA` — result for “RBNS enrichment (R)”: 0.58.
`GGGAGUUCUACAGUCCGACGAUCGUGGAGACCACCGGGGACAGGCUUGCGGACGCCGGCUGUUCUUCCCGCCACGAUCUUUCUGUGGUAGCGGCCAGCAGAAGACAUGGCCUGCUCCCCACUCCCUUUCCCCAUGGAAUUCUCGGGUGCCAA` — result for “RBNS enrichment (R)”: 0.722.
Under “RBNS enrichment (R)”, `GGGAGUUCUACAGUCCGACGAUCUAUAACACACUGGAGAGCACUCUGUGAUGGGGCUGCACACGUGCAGCCGUGCAGCACUCGGGAUGUCUGGUUCAGCAGACCCAGGCUUUAUUGGCCAAAGCAUUCUUACAUGGAAUUCUCGGGUGCCAA` is recorded as 0.349.
`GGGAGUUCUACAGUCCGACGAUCAAAUGAUUAGGAUGCCACAGAUGGUACAUCUAGUGGUCCAGAUAGGAUCCCUCCUGAAAUCUCCUACUUCUUGUCUGCCACUCACUCUUGAGGACACUGGGCCCCCAUGGUGGAAUUCUCGGGUGCCAA`: “RBNS enrichment (R)” 0.635.
For `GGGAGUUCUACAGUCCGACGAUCUCCCUUGCCCAGAGGACAGACCUCCGGGGCCCAUCUUGGCCCUGGGAAAGGGCUCUCCUCUCUGAUUGGUCCCUAGGCCACGGGCCGGCCCCCAGACACCAUUCACCGACUGGAAUUCUCGGGUGCCAA`, “RBNS enrichment (R)” read 0.177.

Study 2 — technique: DNA-protein interaction ELISA; molecule type: double-stranded DNA, one strand shown; sample: in vitro, bacterial lysate; tested at: not given; setting: whole dsDNA probe, crude lysate protein; relative to: highest signal in screen; reading: higher = stronger binding
Target: Probable WRKY transcription factor 33, N-terminal DNA-binding domain (WRKY33, Arabidopsis thaliana, UniProt Q8S8P5, residues 169-264)
Construct (chain): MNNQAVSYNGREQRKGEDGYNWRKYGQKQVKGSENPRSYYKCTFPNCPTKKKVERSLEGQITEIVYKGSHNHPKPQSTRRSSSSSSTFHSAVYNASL
`AAAAAATGCAACGCTCCTTTCCCGCTAAAA` gave a relative absorbance of 20.5 % of maximum.
With `AAAAAACGCTCCGTTTTTGCAATGCGAAAA` the relative absorbance was 21 % of maximum.
For `AAAAAAGTGCGTTCACGCTTGTATCTAAAA`, the relative absorbance was 25.2 % of maximum.
For `AAAAAAGTGTTTGTGCTTCTCTCTGTAAAA`, the relative absorbance was 18.4 % of maximum.
With `AAAAAATATCGGGCACGGTCTTGTCTAAAA` the relative absorbance was 25.8 % of maximum.
The relative absorbance of `AAAAAAACCCGTGCCTGCCTATTGCAAAAA` is reported as 17.3 % of maximum.
For `AAAAAACCGTCTTATCTCTCGTCCCTAAAA`, the relative absorbance was 18.6 % of maximum.
With `AAAAAATCACAATACCTTCTCGTCATAAAA` the relative absorbance was 15.8 % of maximum.
The relative absorbance of `AAAAAAAAATCGAATTTGGACTTCCGAAAA` is reported as 19.5 % of maximum.
`AAAAAAAGGTTTGGGCTTCACGTTATAAAA` has a relative absorbance of 21.4 % of maximum.
With `AAAAAATCGGGCCCCGTTAGCACTCTAAAA` the relative absorbance was 20.3 % of maximum.
`AAAAAAGGCTCCGGCCCCCAATCGCAAAAA` gave a relative absorbance of 18.9 % of maximum.
With `AAAAAAGGAAAACGAGTTCATCTGGTAAAA` the relative absorbance was 19.3 % of maximum.
`AAAAAATAGACCCTGACCCACCATTGAAAA` has a relative absorbance of 27.4 % of maximum.
With `AAAAAAGTCATTATAACCCAAACTCTAAAA` the relative absorbance was 33.7 % of maximum.
For `AAAAAATTTGTACTTTAAGTTTACATAAAA`, the relative absorbance was 16.8 % of maximum.
The relative absorbance of `AAAAAAAAGAGCCTGGGGGTTCGCATAAAA` is reported as 19.2 % of maximum.
`AAAAAATGGTTTCAATTTTCCGTCCGAAAA` has a relative absorbance of 26.5 % of maximum.
With `AAAAAAGTAGGTGCTGATGCTGGCCGAAAA` the relative absorbance was 20.8 % of maximum.
For `AAAAAACTAGGTATCGGTAGGCGCCGAAAA`, the relative absorbance was 33.9 % of maximum.
With `AAAAAAGCTCCCGTCTCTTAGTTCTAAAAA` the relative absorbance was 24.2 % of maximum.
For `AAAAAACCGAGTGTTGCCAGTTGCAGAAAA`, the relative absorbance was 25.4 % of maximum.
With `AAAAAACTGCTAATCGGTGACCCGATAAAA` the relative absorbance was 21.6 % of maximum.

Study 3 — technique: RNA Bind-n-Seq; molecule type: RNA; sample: in vitro; tested at: not given; relative to: input RNA pool; reading: higher = stronger binding
Target: RING finger protein unkempt homolog, zinc fingers 1-6, GST-SBP tag (UNK, Homo sapiens, UniProt Q9C0B0, residues 30-357)
Chain of UniProt Q9C0B0 (30-357, looked up): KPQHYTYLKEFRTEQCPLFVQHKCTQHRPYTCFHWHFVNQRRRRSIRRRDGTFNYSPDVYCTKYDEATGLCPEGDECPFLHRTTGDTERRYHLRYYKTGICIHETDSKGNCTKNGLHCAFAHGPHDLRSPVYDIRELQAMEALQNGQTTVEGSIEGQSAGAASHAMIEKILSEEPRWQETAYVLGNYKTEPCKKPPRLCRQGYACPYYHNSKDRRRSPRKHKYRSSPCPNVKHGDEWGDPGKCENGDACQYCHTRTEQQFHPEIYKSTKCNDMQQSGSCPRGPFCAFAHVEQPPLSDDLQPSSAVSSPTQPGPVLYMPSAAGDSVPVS
Setting: RNA with constant flanks, human and mouse sites, ends assumed
`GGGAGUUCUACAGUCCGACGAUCAGUAGCUCCGCCUGAAGAACUGUUUGCCAAUUCUGCUGAAGGAGAAUUCAGUGCACUCUGUAGCUAUCUAUCUUUACCCACAAAUUUGUUCCUGCUUUUCCAGGAAUAUUGGGAUACCAUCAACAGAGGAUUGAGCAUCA` gave a bound/input enrichment of 0.375 ratio.
`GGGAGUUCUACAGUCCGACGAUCGUGCUGAGUUACACCAGAAUGUAAAUGUGAAGAACAUAAUCAUUGCUUUAAUUGAUAGAUUAGCUUUAUUUGCUCACCGUGAAGAUGGACCUGGAAUCCCAGCGGAUAUUAAACUUUUUGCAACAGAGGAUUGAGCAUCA` has a bound/input enrichment of 2.51 ratio.
`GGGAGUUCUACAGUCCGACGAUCAAGUUAAACCAAUAGUAUAGAAAGCCUAAGAAUGAACACUGAUUGGACAUACUCACAGAAAUUAAGGGAAAAACACAUAUUGUAAAAUUCCUGUCAAUGUUUGAGUAGAAUACAGAAGUACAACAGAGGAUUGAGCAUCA` gave a bound/input enrichment of 1.61 ratio.
With `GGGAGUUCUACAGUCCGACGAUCUCAGAACUCAUCUCCACUCGUUUCACAGGCGCCACUGGCAGAGCAUUUCUUUUUAACAAGGUAGUUAACCUGCAGUACAGUGAAGUUCAAGAUCGGGUCAUGCUCACUGGCCGCCACAUGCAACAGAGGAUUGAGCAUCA` the bound/input enrichment was 0.138 ratio.
`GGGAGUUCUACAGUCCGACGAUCUGUUAUCUGUUGCAGAAGGGAUGUAUUUGGCAGAAUCUCAGGCUGCAUGUCUGGUAGCUCAUUAGAGCCAGGAGAGAUUUUAGUUUAAUUAUAGCCUUUCAUUGUACUAACGAAGGAUUUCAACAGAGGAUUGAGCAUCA` has a bound/input enrichment of 1.81 ratio.
`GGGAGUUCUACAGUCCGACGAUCUGUGGACAAGGAGACAAAGCAGAUGAGAAAGAUGGUAAGAAAAAGCAUGCCAGCAGCACUUCAGAUUCACAUAUCUUGGACUAUUAUGAAAAUCCAGCCAUCAAAGAAGAGAUAUCAACCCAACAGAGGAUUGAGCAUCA` gave a bound/input enrichment of 0.161 ratio.
`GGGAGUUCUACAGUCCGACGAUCGGUUUUGACCGUCACAUUACUAUCUUCUCUCCCGAGGGCCGACUCUACCAAGUAGAAUAUGCUUUUAAGGCUAUUAACCAGGGUGGACUUACAUCUGUUGCUGUCAGAGGAAAGGACUGUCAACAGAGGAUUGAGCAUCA` has a bound/input enrichment of 0.317 ratio.
With `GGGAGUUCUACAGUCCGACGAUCUUGUACGCUUUAUCCAAAGAAAUAUAUGUGAUUAGCGCAGAGACCUUCACUGCCCUAUCAGUACUAGGUGUAAUGGUCUAUGGAAUUAAAAAAUAUGGUCCCUUUGUUGCAGACUUUGCUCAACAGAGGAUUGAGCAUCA` the bound/input enrichment was 0.521 ratio.

Study 4 — technique: universal PBM; molecule type: double-stranded DNA, one strand shown; sample: in vitro; tested at: 600 nM; reading: higher = stronger binding
Target: Sal-like protein 4, full length isoform A (SALL4, Homo sapiens, UniProt Q9UJQ4, residues 1-1053)
Chain of UniProt Q9UJQ4 (whole entry, looked up): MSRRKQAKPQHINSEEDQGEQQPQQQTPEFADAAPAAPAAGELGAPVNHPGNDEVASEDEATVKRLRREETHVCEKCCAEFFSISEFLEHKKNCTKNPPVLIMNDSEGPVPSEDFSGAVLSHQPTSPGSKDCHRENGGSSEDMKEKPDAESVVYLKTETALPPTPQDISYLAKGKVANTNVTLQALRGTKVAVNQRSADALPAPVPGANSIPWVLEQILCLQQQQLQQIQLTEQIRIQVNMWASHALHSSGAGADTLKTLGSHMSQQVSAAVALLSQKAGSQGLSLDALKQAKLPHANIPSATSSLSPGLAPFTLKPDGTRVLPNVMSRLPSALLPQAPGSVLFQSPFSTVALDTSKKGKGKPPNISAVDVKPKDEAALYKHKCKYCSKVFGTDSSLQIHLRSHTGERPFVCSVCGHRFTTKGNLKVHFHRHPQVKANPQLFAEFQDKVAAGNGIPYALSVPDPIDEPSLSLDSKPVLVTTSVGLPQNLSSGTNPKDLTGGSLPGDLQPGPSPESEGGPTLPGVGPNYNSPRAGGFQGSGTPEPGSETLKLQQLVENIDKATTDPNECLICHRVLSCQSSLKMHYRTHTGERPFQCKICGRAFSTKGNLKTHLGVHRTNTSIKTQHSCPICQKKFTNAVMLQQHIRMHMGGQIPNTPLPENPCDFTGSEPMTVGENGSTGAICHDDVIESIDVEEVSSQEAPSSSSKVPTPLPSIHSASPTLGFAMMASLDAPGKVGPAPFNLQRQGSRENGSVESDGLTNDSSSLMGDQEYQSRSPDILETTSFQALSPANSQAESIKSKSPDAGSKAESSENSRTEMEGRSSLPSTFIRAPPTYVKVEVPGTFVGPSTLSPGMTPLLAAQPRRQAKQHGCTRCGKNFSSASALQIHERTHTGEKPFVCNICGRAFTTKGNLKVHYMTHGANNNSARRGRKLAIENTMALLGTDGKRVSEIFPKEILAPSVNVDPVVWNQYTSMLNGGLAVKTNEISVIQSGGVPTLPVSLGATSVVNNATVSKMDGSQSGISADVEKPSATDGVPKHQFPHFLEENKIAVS
Setting: 8-mer, flanks averaged, mean of replicates
`GGGCACGA` gave an E-score of -0.158.
The E-score of `AGATCAGC` is reported as -0.238.
The E-score of `CCTGAGCG` is reported as -0.262.
`GGGAATAA` gave an E-score of 0.228.
`CCGGCCCA` has an E-score of -0.409.
`CAGTGACC` has an E-score of -0.312.
`ATTCGAAT` has an E-score of 0.219.
`CATCGAGA` gave an E-score of 0.0116.
For `CCTCTCAG`, the E-score was -0.271.
For `AGCCGGAT`, the E-score was -0.103.
The E-score of `CATGACGG` is reported as -0.116.
With `AGCAAGAC` the E-score was 0.123.
`ATACACTG` gave an E-score of 0.169.
`CTAAGGGA` has an E-score of -0.0906.
With `ACGAACGC` the E-score was -0.119.
For `AAAGAGGT`, the E-score was 0.107.
With `AGCAGATA` the E-score was 0.0777.
`TATAAACA` has an E-score of 0.352.
`ACGGTGGG` gave an E-score of -0.177.
With `AACGCAGT` the E-score was -0.0894.
The E-score of `ACCGCGCC` is reported as -0.385.
`AGCGAAGG` gave an E-score of -0.172.
For `GCCGGCGC`, the E-score was -0.27.
For `AACACCCA`, the E-score was -0.154.
For `AACTGCCG`, the E-score was -0.132.
